Published values of several laboratories.
Parts stem from different laboratories: compare values within a part only.

Sample 1 — method: universal PBM; molecule type: double-stranded DNA, one strand shown; medium: in vitro; tested at: 600 nM; direction: higher = stronger binding; measurement: E-score
Target: Sal-like protein 4, full length isoform A (SALL4, Homo sapiens, UniProt Q9UJQ4, residues 1-1053)
UniProt Q9UJQ4, sequence (whole entry, looked up): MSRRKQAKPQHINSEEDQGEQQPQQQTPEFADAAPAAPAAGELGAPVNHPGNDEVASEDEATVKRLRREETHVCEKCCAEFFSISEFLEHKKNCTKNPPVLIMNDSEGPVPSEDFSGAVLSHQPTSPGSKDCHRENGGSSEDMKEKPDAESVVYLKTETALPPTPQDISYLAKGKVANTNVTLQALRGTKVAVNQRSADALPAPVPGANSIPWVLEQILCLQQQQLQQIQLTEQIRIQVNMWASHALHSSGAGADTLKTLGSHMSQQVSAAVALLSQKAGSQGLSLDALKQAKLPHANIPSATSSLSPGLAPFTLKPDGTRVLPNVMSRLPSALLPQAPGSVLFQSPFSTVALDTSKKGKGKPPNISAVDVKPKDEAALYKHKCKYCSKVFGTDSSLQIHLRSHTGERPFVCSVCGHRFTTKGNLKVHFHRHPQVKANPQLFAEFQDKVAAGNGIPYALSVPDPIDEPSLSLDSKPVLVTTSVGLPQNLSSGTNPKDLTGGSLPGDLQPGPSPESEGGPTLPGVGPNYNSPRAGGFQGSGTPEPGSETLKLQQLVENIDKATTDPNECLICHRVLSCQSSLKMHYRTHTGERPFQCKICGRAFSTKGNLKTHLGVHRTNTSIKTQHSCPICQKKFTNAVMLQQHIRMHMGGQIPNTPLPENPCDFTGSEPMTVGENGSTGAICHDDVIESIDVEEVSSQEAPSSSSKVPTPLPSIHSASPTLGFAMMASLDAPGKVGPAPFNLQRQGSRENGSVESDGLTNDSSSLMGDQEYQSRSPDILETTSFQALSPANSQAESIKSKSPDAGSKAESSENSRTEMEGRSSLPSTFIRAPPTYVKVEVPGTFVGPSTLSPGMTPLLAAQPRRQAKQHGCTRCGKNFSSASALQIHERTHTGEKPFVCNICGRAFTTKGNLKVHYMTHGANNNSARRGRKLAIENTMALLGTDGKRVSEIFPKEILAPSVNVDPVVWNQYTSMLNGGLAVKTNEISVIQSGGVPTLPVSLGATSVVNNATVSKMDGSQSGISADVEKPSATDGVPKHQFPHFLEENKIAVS
Setting: 8-mer, flanks averaged, mean of replicates
CTTAATGA: 0.142
CGTGACCA: -0.143
CGCTGAAC: -0.0406
AACAACCG: 0.0388

Sample 2 — method: RNA Bind-n-Seq; molecule type: RNA; medium: in vitro; tested at: 365 nM; baseline: no-protein control; direction: higher = stronger binding; measurement: RBNS enrichment (R)
Target: RNA binding protein fox-1 homolog 2, RRM domain, GST-SBP tag (RBFOX2, Homo sapiens, UniProt O43251-10, residues 100-194)
Setting: natural RNA segment, single round, ends assumed
GGGAGUUCUACAGUCCGACGAUCCCUCUGCCCCCUGGGUUCAAGCGAUUCUCCUGCCUCAGCCUCCCGAGUAGCUGAGACUACAGGCACCUGCCACCAUACCCAGCUAAGUUAUGUAUUUUUAGUAGAGAUGGUGGAAUUCUCGGGUGCCAA: 0.857
GGGAGUUCUACAGUCCGACGAUCGUCUGACUAUCUUGAGGGAGAAACAAGCAGGUUUCUACUAGUGGUGUCUUCUGUUGUAUUAACUUCUUUCCUUUGUGGUAUCUUGUAUCCUGUUUUAAAAACUAAAUGAAUGGAAUUCUCGGGUGCCAA: 0.567
GGGAGUUCUACAGUCCGACGAUCAGGGACUCUGCUUUCCUGUACUUCCUAAAAGUACAUUCACUAAUACUGAAGCAUCAAAGUGUAGUUUAACCUUAAGGUUGGGUUGUAAAUAACACAGUUGGGUGUAGGCAUGGAAUUCUCGGGUGCCAA: 0.776
GGGAGUUCUACAGUCCGACGAUCUCACACUUGUUGAAAAGUCUGUGAAGAACAUAGUUAAAGAUCUCCAACUUUGGAAAAUAUACAUGAUGUGAAACUGGGGUGCUAUGUUAAAAAUAAAUGUAUGAUAACUAUGGAAUUCUCGGGUGCCAA: 0.403

Sample 3 — method: protein-binding microarray; molecule type: double-stranded DNA, one strand shown; medium: in vitro; tested at: 250 nM; setting: 60-bp whole probe; added: salmon DNA 0.4 mg/ml; baseline: random background probes; direction: higher = stronger binding; measurement: log fluorescence
Target: Interferon regulatory factor 5, full length, phosphomimetic (IRF5, Homo sapiens, UniProt Q13568-2, residues 1-514, K96S/S451D/S453D/S456D/S462D)
GCCTAGCACGACGATATCGGGTTTCGACACGTGCTAGTCTTGATTCGCTTGACGCTGCTG: 4.37 z-score
GCCTAGCACTCAGCTCTGCAGCTCAGACTGTGCTAGGTCTTGATTCGCTTGACGCTGCTG: -0.496 z-score
GCCTAGCACGACGGACTGGGTTGCGGGACGTGCTAGGTCTTGATTCGCTTGACGCTGCTG: -0.549 z-score

Other studies, line by line
PhoQ, residues 284 288 289 292 302 303 TYGVAM
fold induction (PhoP, residues 12 14 15 18 19 FWNTL (Escherichia coli, UniProt P23836); Sort-seq, refers to: YFP reporter; E. coli; PhoQ-PhoP variant library, added: 10 µM Mg2+; baseline: high Mg2+ state, higher = stronger signaling): 3.17

A few entries again (sample 3):
GCCTAGCACGACGGACTGGGTTGCGGGACGTGCTAGGTCTTGATTCGCTTGACGCTGCTG: -0.549 z-score
